Measurements gathered from unrelated publications.
Each numbered part is a random draw from the data of one study; scales do not carry over between parts.

Series 1
Target: RNA binding protein fox-1 homolog 2, RRM domain, GST-SBP tag (RBFOX2, Homo sapiens, UniProt O43251-10, residues 100-194)
Method: RNA Bind-n-Seq
Form: RNA
Sample: in vitro
Concentration: 365 nM
Setting: natural RNA segment, single round, ends assumed
Reference: no-protein control
Direction: higher = stronger binding
Residues (chain): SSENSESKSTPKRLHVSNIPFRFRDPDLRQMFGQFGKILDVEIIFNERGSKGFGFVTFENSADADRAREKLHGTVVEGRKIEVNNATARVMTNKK
For `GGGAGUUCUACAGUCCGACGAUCCUCUGUAUUUGCCCAGGAUGGAGCACUCUGUCCCUGUCACAGGUGUGGUGAUUCCUGAGACUGGCAACAUGCCACAGAGUUGAAAUAAUACUCAGAACUCAGGAGCCUUGUGGAAUUCUCGGGUGCCAA`, “RBNS enrichment (R)” read 0.346.
`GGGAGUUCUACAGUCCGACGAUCGGUGGAGCCGUGAAGGAGGCCGAGCUGCAGCUCUGGCUGCUGCUUGGCCUCCUGCUCCAAGACCCUCCCGAGUCCCCGGAAAUGGAGAGUGCAGUUCUUGGGCCCAGCCUUGGAAUUCUCGGGUGCCAA`: “RBNS enrichment (R)” 0.457.
For `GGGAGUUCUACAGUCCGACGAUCUGUUAACAAUGCAGUAGCCAGCACGUUCGAGGCGGUUUCCAGGAAGAGUGUGCUUGUCAUCUGCCACUUUCGGGAGGGUGGAUCCACUGUGCAGGAGUGGCCGGGGAAGCUGGAAUUCUCGGGUGCCAA`, “RBNS enrichment (R)” read 0.863.
`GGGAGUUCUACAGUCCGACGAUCGAGGAGGCAGCUGUUGCAAUCAAGGCCAUGGCAAAAUACUGGCUCCCAGGGUGGCGGUGGUGGCAGCAGUGAUCCUCUGAACCUGCAGAGGCCCCCUCCCCGAGCCUGGCUGGAAUUCUCGGGUGCCAA` — result for “RBNS enrichment (R)”: 0.321.
Under “RBNS enrichment (R)”, `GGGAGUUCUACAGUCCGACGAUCGGAGGGCCUGUGUGAGUUACGCCCCUUUCCACACGCCGCUGCCCCAGCAACCCUGUUCACGCUCCACCUGUCUGGUCCAUAGCUCCCUGGAGGCUGGGCCAGGAGGCAGCUGGAAUUCUCGGGUGCCAA` is recorded as 0.29.
For `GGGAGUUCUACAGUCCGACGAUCUCUGUUUUAAACAGUAGUAAAAAACUGGCGUUCAAGGCAGAGUCCACAGGUGCUUAAAGGACACUUUCAGAAGAAGCUGAAGGCCUUGAGGUCUGCCCACCCAGCUGAUCUGGAAUUCUCGGGUGCCAA`, “RBNS enrichment (R)” read 0.213.
`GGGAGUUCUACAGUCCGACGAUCAUGGCCUAGUACCUGAUGGAGCCUGUAUAGCUCAGCUAAUCAAAUGGAGGCUCAGGUCCAUCAGAAUCAGGGACUUGUGAUUUCAGUCACCUUGCUUCUGGGUUGUGUUUUGGAAUUCUCGGGUGCCAA`: “RBNS enrichment (R)” 0.317.
`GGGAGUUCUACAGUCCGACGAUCCCUCCCCCCAGUUGCCCCUCAGUCGAAGCACUGUGCCAUGUCCUGCUGGGAAUUUUCUGCCAUGCAGGCAAGACCAUCAGCACCGAGAACCCCAAACCUGUUUUGUACUUUGGAAUUCUCGGGUGCCAA` — result for “RBNS enrichment (R)”: 0.411.

Series 2
Target: Histone acetyltransferase KAT6A, winged helix 1, GST fusion (KAT6A, Homo sapiens, UniProt Q92794, residues 1-85)
Method: protein binding microarray
Form: double-stranded DNA, one strand shown
Sample: in vitro
Concentration: not given
Setting: 8-mer, flanks averaged, mean of 2 arrays, mostly near background
Reference: not given
Direction: higher = stronger binding
Residues (chain): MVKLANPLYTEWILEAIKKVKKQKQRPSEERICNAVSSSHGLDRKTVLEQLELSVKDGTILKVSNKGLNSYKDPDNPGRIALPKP
The E-score of `ACAGTCTA` is reported as 0.0332.
The E-score of `GGATGCCA` is reported as -0.322.
`CGAACTTA` gave an E-score of 0.0103.
`AGCATGAT` has an E-score of -0.189.
The E-score of `ACAGTGCA` is reported as -0.0816.
The E-score of `ATTTTCCA` is reported as -0.12.
The E-score of `TACCCAAA` is reported as -0.125.
With `GTTGCCCA` the E-score was -0.0738.

Series 3
Cell line: HEK-293T-ACE2
Concentration: concentration not given
Reference: vehicle
`O=[As]O[As]=O` (centres unmarked) gave a cell number of 99.7%.
`O=C(O)C(=O)O.[NH-][C@@H]1CCCC[C@H]1[NH-].[Pt+2]` gave a cell number of 100%.
`CC1(C)CCC(CN2CCN(c3ccc(C(=O)NS(=O)(=O)c4ccc(NCC5CCOCC5)c([N+](=O)[O-])c4)c(Oc4cnc5[nH]ccc5c4)c3)CC2)=C(c2ccc(Cl)cc2)C1` has a cell number of 2.73%.
The cell number of `Br.Cc1ccc(Sc2ccccc2N2CCNCC2)c(C)c1` is reported as 94.5%.

Series 4
Target: Replicase polyprotein 1ab, nsp13 helicase (rep, Severe acute respiratory syndrome coronavirus 2, UniProt P0DTD1)
Action: inhibitor
Concentration: 20 µM
`CCN[C@@H](C)Cc1cccc(C(F)(F)F)c1` gave an inhibition of -2.18%.
The inhibition of `O=C(/C=C/c1cccnc1)NCCCCC1CCN(C(=O)c2ccccc2)CC1` is reported as 2.28%.
The inhibition of `CS(=O)(=O)c1ccc(-c2nnc(/C=C/c3nnc(-c4ccc(C#N)cc4)o3)n2-c2ccccc2Cl)nc1` is reported as -1.14%.
With `CN(C)CCCN1c2ccccc2Sc2ccc(Cl)cc21` the inhibition was 14.4%.
`O=C(NC1CCN(CCc2c[nH]c3ccccc23)CC1)c1ccccc1` gave an inhibition of -2.08%.
The inhibition of `CCn1c(=O)[nH]c2cc(Cl)c(Cl)cc21` is reported as 5.21%.
The inhibition of `COc1ccc(C(=O)/C(Br)=C\C(=O)O)cc1` is reported as 10.7%.
For `CN1C(=O)N[C@H](Cc2c[nH]c3c(Cl)cccc23)C1=O`, the inhibition was -1.49%.
The inhibition of `N=C(N)c1ccc(N=NNc2ccc(C(=N)N)cc2)cc1` is reported as 23.7%.
`CCOC(=O)c1ccc(O)cc1` has an inhibition of 0.89%.
`CN1CCN(c2nc3ccccc3nc2Cl)CC1` has an inhibition of 5.6%.
For `CC(=O)OCC1=C(C(=O)O)N2C(=O)[C@@H](N)[C@H]2SC1`, the inhibition was -1.34%.
`CCN(CC)CCNC(C(=O)OCCC(C)C)c1ccccc1` (centres unmarked) gave an inhibition of 5.21%.
`CCCNC(=O)NS(=O)(=O)c1ccc(Cl)cc1` gave an inhibition of -6.26%.
For `Cc1cn([C@@H]2C[C@@H](O)[C@H](CO)O2)c(=O)[nH]c1=O`, the inhibition was 6.18%.
With `CCCC(C)C1(CC)C(=O)NC(=O)NC1=O` (centres unmarked) the inhibition was -4.38%.
`CS(=O)(=O)OC[C@H](O)[C@@H](O)COS(C)(=O)=O` has an inhibition of 6.53%.
For `CC(CC(C(N)=O)(c1ccccc1)c1ccccc1)N(C)C` (centres unmarked), the inhibition was -4.02%.
`O[C@@H](c1cc(C(F)(F)F)nc2c(C(F)(F)F)cccc12)[C@H]1CCCCN1` gave an inhibition of 24.8%.
The inhibition of `COc1cc(/C=C/C(N)=O)cc(OC)c1OC` is reported as 4.04%.
The inhibition of `NC(=Nc1ccccc1)Nc1ccccc1` is reported as -18.5%.
The inhibition of `Fc1ccc(Cl)cc1-c1nc(Nc2ccncc2)c2nccnc2n1` is reported as 9.39%.
`O=C(NCCO)c1cccc(-c2cc(Nc3ccc(OC(F)(F)F)cc3)ncn2)c1` has an inhibition of 0.57%.
`COCc1c(-c2ccc(NC(=O)Nc3cc(C(F)(F)F)ccc3F)c(F)c2)c2c(N)ncnn2c1CN1CCOCC1` has an inhibition of -2.2%.
`Cc1onc(-c2c(F)cccc2Cl)c1C(=O)N[C@@H]1C(=O)N2[C@@H]1SC(C)(C)[C@@H]2C(=O)O` gave an inhibition of -6.55%.

Series 5
Target: Replicase polyprotein 1ab, main protease (rep, Severe acute respiratory syndrome coronavirus 2, UniProt P0DTD1)
Read-out: enzyme activity
Action: inhibitor
Concentration: 20 µM
`NC(=S)N/N=C/c1coc2ccccc2c1=O` has an inhibition of 2.29%.
`S=c1nn[nH]n1-c1ccccc1` gave an inhibition of 78.4%.
`CCN(CC)C(=S)S` has an inhibition of -13.9%.
`C=Cc1c(C)c2cc3nc(c(CC(=O)[O-])c4[n-]c(cc5nc(cc1[n-]2)C(C)=C5CC)c(C)c4C(=O)[O-])C(CCC(=O)[O-])C3C.[Cu+2]` (centres unmarked) has an inhibition of 28.7%.
`C[C@@H](CN1CC(=O)NC(=O)C1)N1CC(=O)NC(=O)C1` gave an inhibition of -22.9%.
